Published values from different studies.
A part holds a random share of what one study measured.

Series 1 — mode: inhibitor; concentration: 20 µM; quantity: inhibition
Target: Replicase polyprotein 1ab, nsp13 helicase (rep, Severe acute respiratory syndrome coronavirus 2, UniProt P0DTD1)
CNCCN(C)Cc1c[nH]nc1-c1ccc(O[C@H]2C[C@H](OCCC3CCOCC3)C2)cc1: 5.7%
C=CC(N)CCC(=O)O (centres unmarked): 1.07%
NC(=O)c1ccc(I)c([N+](=O)[O-])c1: 5.81%
Cc1cnc(-c2ccccc2C(C)C)nc1NCc1ccc(-n2ccnn2)cc1: 13.9%
Cc1nnc(NS(=O)(=O)c2ccc(N)cc2)s1: 0.86%
CC(=O)OCC1=C(C(=O)O)N2C(=O)[C@@H](NC(=O)CSc3ccncc3)[C@H]2SC1: 12.1%
N=C(N)c1cc2ccc(OC(=O)c3cccs3)cc2s1: 7.6%
COc1ccc(-n2c(SCCCN3C(=O)c4cccc5cccc(c45)C3=O)nnc2-c2ccncc2)cc1: 1.49%
Cc1cc(O)c(-c2ccc([C@@H](C)CN)cc2)c2c1[nH]c(=O)c1sccc12: 2.07%
O=C(c1ccc(F)c(F)c1Nc1ccc(I)cc1F)N1CC(O)([C@@H]2CCCCN2)C1: 12%
CCCCc1nc(C)c(CC(=S)N(C)C)c(=O)n1Cc1ccc(-c2ccccc2-c2nnn[nH]2)cc1: 9.96%
Cc1[nH]c2ccccc2c1CCNC(=O)c1cccs1: -3.65%
COC1=C[C@@H]2[C@@H]3Cc4ccc(OC)c(O)c4[C@]2(CCN3C)CC1=O: 3.36%
CCC1(C)CC(=O)NC(=O)C1: -3.17%
C[C@@H]1C(=O)O[C@H]2C[C@@]34[C@H]5C[C@@H](C(C)(C)C)[C@]36[C@@H](OC(=O)[C@@H]6O)O[C@@]4(C(=O)O5)[C@]21O: 8.12%
COc1ccc(-c2oc3cc(OC)ccc3c2C(=O)c2ccc(C#N)cc2)cc1: 0.24%
NCC(O)(CS(=O)(=O)O)c1ccc(Cl)cc1 (centres unmarked): 0.7%
CC(=O)O[C@]1(C(C)=O)CC[C@H]2[C@@H]3CCC4=CC(=O)CC[C@]4(C)[C@H]3CC[C@@]21C: 11.3%
COc1ccc(-c2cnc3c(-c4cccc5ncccc45)cnn3c2)cc1: 5.3%
CCCCCCOc1ccccc1C(N)=O: 2.9%
CC(=O)O[C@]1(C(C)=O)CC[C@H]2[C@@H]3C=C(Cl)C4=CC(=O)[C@@H]5C[C@@H]5[C@]4(C)[C@H]3CC[C@@]21C: 8.58%
CCCN(CCC)CCc1cccc2c1CC(=O)N2: -4.25%
Nc1nccc2c1ncn2[C@@H]1C=C(CO)[C@@H](O)[C@H]1O: 1.77%
CN(c1ncccc1CNc1nc(Nc2ccc3c(c2)CC(=O)N3)ncc1C(F)(F)F)S(C)(=O)=O: 9.31%
COc1cc(C=O)ccc1O: 6.74%

Series 2 — technique: RNA Bind-n-Seq; molecule type: RNA; matrix: in vitro; concentration: 200 nM; setting: whole 134-nt RNA, ends assumed; with: 150 mM LiCl; reference: input library; direction: higher = stronger binding; quantity: log2 enrichment; library: 7-deaza-guanosine replaces G
Target: Fragile X messenger ribonucleoprotein 1, C-terminal low-complexity region (Fmr1, Mus musculus, UniProt P35922)
Shared flanks, not repeated: GGGAGUUCUACAGUCCGACGAUC … UGGAAUUCUCGGGUGUCAAGG
GUCCUGUGCUACACAUCGUAUGUACCGAAUCGGGGAAAAGGGGAAAAGGGAAAAGGGGAAAGUAUUAUGUUACGCCGUUCGGAUCUGCAC: 0.913
CAAGUCCUGUGCUACACAUCGUAUGUACCGAAUCGGGUUUUUUUGGGAGGGUGGGAAAGUAUUAUGUUACGCCGUUCGGAUCUGCACUUC: -0.508
AUGAAGAUGAAGAAGAGGAUGAUGAGGACGAGGAUGACGACGACGACGAAGAUGAUGAAGAUGAUGAUGAUGAAGAUGAUGAGGAGGAGG: 1.34
UGGCCCUGGUGGCAUGCGGGGAGGAAGAGGUGGCCUCAUGGAUUGUGGUGGUCCCGGUGGAAUGUUCAGAGGUGGCCGUGGUGGAGACAG: 1.01
AAGUCCUGUGCUACACAUCGUAUGUACCGAAUCGGGGCCCGGGGCCCGGCCCGGGGAAAGUAUUAUGUUACGCCGUUCGGAUCUGCACUU: -1.68
CCUGUGCUACACAUCGUAUGUACCGAAUCGGCCCCCCCGGGCCCCCCCGGGCCCCCCCGGGAAAGUAUUAUGUUACGCCGUUCGGAUCUG: -0.142
UCAAGUCCUGUGCUACACAUCGUAUGUACCGAAUCGGUUUGGUUUGGUUUGGGGAAAGUAUUAUGUUACGCCGUUCGGAUCUGCACUUCC: -1.24

Series 3 — technique: universal PBM; molecule type: double-stranded DNA, one strand shown; matrix: in vitro; concentration: not given; direction: higher = stronger binding; quantity: E-score
Target: Sal-like protein 4, full length isoform B (SALL4, Homo sapiens, UniProt Q9UJQ4-2, residues 1-616)
Setting: 8-mer, flanks averaged, mean of replicates
Residues (chain): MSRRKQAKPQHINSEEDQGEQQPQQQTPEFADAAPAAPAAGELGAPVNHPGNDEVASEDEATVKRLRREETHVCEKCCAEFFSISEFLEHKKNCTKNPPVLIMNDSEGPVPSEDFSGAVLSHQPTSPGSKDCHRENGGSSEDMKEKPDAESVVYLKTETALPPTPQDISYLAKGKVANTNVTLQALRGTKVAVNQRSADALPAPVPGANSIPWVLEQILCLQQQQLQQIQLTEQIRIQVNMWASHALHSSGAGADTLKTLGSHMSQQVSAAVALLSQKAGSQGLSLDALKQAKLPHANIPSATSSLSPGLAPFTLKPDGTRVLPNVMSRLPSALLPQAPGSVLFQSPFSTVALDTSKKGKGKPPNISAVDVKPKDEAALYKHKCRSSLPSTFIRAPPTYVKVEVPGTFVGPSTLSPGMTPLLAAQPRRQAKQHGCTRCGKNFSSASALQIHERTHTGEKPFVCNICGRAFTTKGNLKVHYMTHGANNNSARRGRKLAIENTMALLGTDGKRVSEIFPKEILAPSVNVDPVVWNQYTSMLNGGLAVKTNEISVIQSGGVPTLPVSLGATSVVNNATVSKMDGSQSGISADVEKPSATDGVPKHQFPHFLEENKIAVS
CGTCAACA: -0.128
TCGCACCA: 0.0215
ATGTGCAC: -0.0048
CCGCCCTA: -0.121
GAGTGAGC: -0.15
CCACTCCG: -0.138
ATTCCTCC: -0.00252
ATGTGGCG: -0.0773

Series 4 — technique: protein-binding microarray; molecule type: double-stranded DNA, one strand shown; matrix: in vitro; concentration: 2200 nM top; setting: 60-bp whole probe; with: salmon DNA 0.4 mg/ml; reference: random background probes; direction: higher = stronger binding; quantity: fitted relative affinity; shared flanks, not repeated: GCCTAGCAC … GTCTTGATTCGCTTGACGCTGCTG
Target: Interferon regulatory factor 7, full length, phosphomimetic (IRF7, Homo sapiens, UniProt Q92985, residues 1-503, S471D/S472D/S475D/S476D/S477D/S483D/S484D/S487D)
Target sequence (chain): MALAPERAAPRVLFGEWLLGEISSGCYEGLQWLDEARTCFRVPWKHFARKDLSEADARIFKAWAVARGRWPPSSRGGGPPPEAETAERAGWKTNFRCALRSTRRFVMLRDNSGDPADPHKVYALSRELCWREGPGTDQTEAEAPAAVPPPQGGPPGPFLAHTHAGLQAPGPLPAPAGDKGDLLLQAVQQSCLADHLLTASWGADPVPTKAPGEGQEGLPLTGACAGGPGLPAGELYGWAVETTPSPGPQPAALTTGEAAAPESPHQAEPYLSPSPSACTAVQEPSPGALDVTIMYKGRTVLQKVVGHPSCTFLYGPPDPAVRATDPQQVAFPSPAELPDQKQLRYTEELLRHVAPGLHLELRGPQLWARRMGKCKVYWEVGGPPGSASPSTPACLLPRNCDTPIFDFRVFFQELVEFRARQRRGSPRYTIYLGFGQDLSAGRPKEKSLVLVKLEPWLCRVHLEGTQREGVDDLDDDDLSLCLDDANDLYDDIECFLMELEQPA
TCACATTTTTCCCTCTGACTGTGCTAG: 2.66 z-score
TTAGACCTGGGGTATCGATTAGTGCTA: -0.304 z-score
TTAGATTTTGGGACTGGATTAGTGCTA: -0.264 z-score
GACGAACTGGGGACTGTAGACGTGCTA: -0.0761 z-score
TTAGGACTGGGGTTTCGGTTCGTGCTA: 7 z-score
TGTGCTTTCCTGATGGTTTTGTGCTAG: 2.42 z-score
TTAGATTTCCGACTGGATTAGTGCTAG: 0.389 z-score
GAAGAACTGAGTTTCGAGACGTGCTAG: 2.11 z-score

Further values, each from its own experiment — cell line: HEK-293T; effect on: pseudovirus infection; organism: VSV pseudotyped with SARS-CoV-2 spike; concentration: 10 µM; time: 16 h; reference: vehicle-treated
CCCc1nn(C)c2c(=O)[nH]c(-c3cc(S(=O)(=O)N4CCN(C)CC4)ccc3OCC)nc12  GFP-positive cells (FDA-approved drug library screen): 96.5%
Cc1ccccc1C(=O)Nc1ccc(C(=O)N2CCCC(O)c3cc(Cl)ccc32)c(C)c1 (centres unmarked)  GFP-positive cells: 89.9%

For quick reference, copied from above (series 1):
CCCCc1nc(C)c(CC(=S)N(C)C)c(=O)n1Cc1ccc(-c2ccccc2-c2nnn[nH]2)cc1: 9.96%
Cc1[nH]c2ccccc2c1CCNC(=O)c1cccs1: -3.65%
COC1=C[C@@H]2[C@@H]3Cc4ccc(OC)c(O)c4[C@]2(CCN3C)CC1=O: 3.36%
CCC1(C)CC(=O)NC(=O)C1: -3.17%
C[C@@H]1C(=O)O[C@H]2C[C@@]34[C@H]5C[C@@H](C(C)(C)C)[C@]36[C@@H](OC(=O)[C@@H]6O)O[C@@]4(C(=O)O5)[C@]21O: 8.12%
COc1ccc(-c2oc3cc(OC)ccc3c2C(=O)c2ccc(C#N)cc2)cc1: 0.24%
NCC(O)(CS(=O)(=O)O)c1ccc(Cl)cc1 (centres unmarked): 0.7%
CC(=O)O[C@]1(C(C)=O)CC[C@H]2[C@@H]3CCC4=CC(=O)CC[C@]4(C)[C@H]3CC[C@@]21C: 11.3%
